Assay results from different studies.
Lines come from different studies, so protocols differ.
B1: human RAB1C; sequence looked up; chain MNPGYDCLFKLLLIGDSGVGKSCLLLRFADDPYTESYISTIGVDFKIQTIELDGKTIKLQIWDTAGQERFWTITSSYYRGAHGFLVVYDVTDQESYANVKQWLQEIDRHASENVNKLLVGNKSDLTTKKVVDNTTAKEFADSLGIPFLETSAKNATNVEQAFMTMAAEIKKQMGPGAASGGERPNLKIDSTPVKPAGGGCC

TCATCCGCTG (PNA, CPP-conjugated)  MIC (Salmonella enterica serovar Typhimurium; peptide, SL1344; 18 h): 2.5 µM
B1 (human RAB1C)  log2 fold change (CYB5R4 knockout human cells; PP6 interaction, 3xFLAG-PP6C IP-MS; concentration not given; relative to: CYB5R4 KO over parental): -0.1
colistin  MIC (Staphylococcus aureus; MRSA 109, RPMI with 10% FBS; 18 to 24 h, 37 °C): 18.5 µM
DAPT  MIC (Bacillus subtilis; ATCC 6633): 0.7 µg/mL
gentamicin sulfate  MIC (Pseudomonas aeruginosa; ATCC 27853, susceptible; 18 h, 37 °C, dark): 0.5 µM
CTTTCATGCG (PNA, CPP-conjugated)  MIC (Salmonella enterica serovar Typhimurium; peptide, SL1344; 18 h): 10 µM
benzalkonium chloride  MIC (Staphylococcus aureus; USA300 CA-MRSA; tested up to 1 µM): 4 µM
colistin  MIC (Pseudomonas aeruginosa; clinical isolate RKI 67/14): ≤ 1 µg/mL
cyclophilin B (human)  log2 fold change (CYB5R4 knockout human cells; PP6 interaction, 3xFLAG-PP6C IP-MS; concentration not given; relative to: CYB5R4 KO over parental): -1.55
colistin  MIC (Pseudomonas aeruginosa; PER-producing clinical isolate R13-94): 0.5 µg/mL

Repeated from above:
benzalkonium chloride  MIC (Staphylococcus aureus; USA300 CA-MRSA; tested up to 1 µM): 4 µM
colistin  MIC (Pseudomonas aeruginosa; PER-producing clinical isolate R13-94): 0.5 µg/mL
